Measurements gathered from unrelated publications.
Each line is one published result; not all experiments were run side by side. Numbers after ± are the reported error.
Cell line: HepG2

SMILES	test	system	setting	how to read	endpoint	result
COc1ccc(CCOc2ccc(-c3ccsc3)cc2C(N)=O)cc1F	–	–	3 (unit not given), human	–	CC50	21 ± 4 µM
O=S(=O)(c1ccc(-c2ccc3nccc(Nc4ccccc4)c3c2)cc1)N1CCOCC1	cytotoxicity, MTT	–	48 h	–	TC50	> 20 µM
CN(C)N=O	–	–	maximum tested	–	micronucleated cells	0.8%
Cc1cc(Nc2ccnc3ccc(-c4ccc(S(=O)(=O)N5CCOCC5)cc4)cc23)sn1	cytotoxicity, MTT	–	48 h	–	TC50	> 20 µM
Cc1ccc(OCCc2cc(F)cc(F)c2)c(C(N)=O)c1	–	galactose medium	3 (unit not given)	–	CC50	65 ± 22 µM
CN1CCN(S(=O)(=O)c2ccc(-c3ccc4c(Nc5ccc(OCc6cccc(F)c6)c(Cl)c5)ccnc4c3)cc2)CC1	cytotoxicity, MTT	–	48 h	–	TC50	> 4 µM
O=S(=O)(c1ccc(-c2ccc3nccc(Nc4cncs4)c3c2)cc1)N1CCOCC1	cytotoxicity, MTT	–	48 h	–	TC50	> 20 µM
O=c1c2cc(Cl)ccc2[nH]c(=S)n1Cc1cccnc1	–	–	24 h	–	LD50	> 100 µM
COCCNC(=O)c1cc(-c2ccoc2)ccc1OCCc1cccc(F)c1	–	–	3 (unit not given), glucose medium	–	CC50	> 50 µM
Cc1cc2c(=O)n(Cc3cccnc3)c(=S)[nH]c2cn1	–	–	24 h	–	LD50	> 100 µM
O=S(=O)(c1ccc(-c2ccc3nccc(Nc4ccncc4)c3c2)cc1)N1CCOCC1	cytotoxicity, MTT	–	48 h	–	TC50	> 20 µM
O=S(=O)(c1ccc(-c2ccc3c(Nc4ccc(OCc5ccccc5)c(Cl)c4)nccc3c2)cc1)N1CCOCC1	cytotoxicity, MTT	–	48 h	–	TC50	> 5 µM
O=c1ccc2ccccc2o1	item: phospholipidosis	–	concentration not given, 24 h, phospholipidosis and steatosis panel	–	probability of response	93.8%
COc1ccc(Nc2ccnc3ccc(-c4ccc(S(=O)(=O)N5CCOCC5)cc4)cc23)cc1C	cytotoxicity, MTT	–	48 h	–	TC50	9 µM
CC[C@H]1CN2CCc3cc(OC)c(OC)cc3[C@@H]2C[C@@H]1C[C@H]1NCCc2cc(OC)c(OC)cc21	–	–	72 h	relative to: HepG2 CC50 over EC50	selectivity index	64
CCc1ccc(OCCc2cccc(F)c2)c(C(N)=O)c1	–	–	3 (unit not given), glucose medium	–	CC50	26 ± 0.47 µM
COc1ccc(Nc2ccnc3ccc(-c4ccc(S(=O)(=O)N5CCOCC5)cc4)cc23)cc1Cl	cytotoxicity, MTT	–	48 h	–	TC50	> 20 µM
Cc1nc(-c2ccc(OCCc3cccc(F)c3)c(C(N)=O)c2)cs1	–	galactose medium	3 (unit not given)	–	CC50	40 ± 20 µM
O=S(=O)(c1ccc(-c2ccc3nncc(Nc4ccc(OCc5ccccc5)c(Cl)c4)c3c2)cc1)N1CCOCC1	cytotoxicity, MTT	–	48 h	–	TC50	> 15 µM
CC(C)(O)c1ccc(OCCc2cccc(F)c2)c(C(N)=O)c1	–	galactose medium	3 (unit not given)	–	CC50	78 ± 13 µM
[Cl][Cd][Cl]	micronucleus formation	–	–	–	lowest effective concentration	1.5 µM
Cc1cnc(OCCc2cccc(F)c2)c(C(N)=O)c1	–	galactose medium	3 (unit not given)	–	CC50	55 ± 22 µM
N#Cc1cnc2ccc(-c3cccc(N4CCOCC4)c3)cc2c1Nc1ccc(OCc2ccccc2)c(Cl)c1	cytotoxicity, MTT	–	48 h	–	TC50	> 15 µM
C#Cc1ccc(OCCc2cccc(F)c2)c(C(N)=O)c1	–	–	3 (unit not given), human	–	CC50	45 ± 5.5 µM
Fc1cccc(COc2ccc(Nc3nccc4ccc(-c5cccc(N6CCOCC6)c5)cc34)cc2Cl)c1	cytotoxicity, MTT	–	48 h	–	TC50	> 15 µM
CCN(N=O)C(N)=O	–	–	maximum tested, 24 (unit not given)	relative to: vehicle	micronuclei fold increase	2 fold

Excerpt of the above:
SMILES	test	system	setting	how to read	endpoint	result
COc1ccc(Nc2ccnc3ccc(-c4ccc(S(=O)(=O)N5CCOCC5)cc4)cc23)cc1C	cytotoxicity, MTT	–	48 h	–	TC50	9 µM
CN(C)N=O	–	–	maximum tested	–	micronucleated cells	0.8%
O=S(=O)(c1ccc(-c2ccc3nncc(Nc4ccc(OCc5ccccc5)c(Cl)c4)c3c2)cc1)N1CCOCC1	cytotoxicity, MTT	–	48 h	–	TC50	> 15 µM
COc1ccc(CCOc2ccc(-c3ccsc3)cc2C(N)=O)cc1F	–	–	3 (unit not given), human	–	CC50	21 ± 4 µM
